Measurements of several laboratories.
A part holds a random share of what one study measured.
Chain of UniProt P60604 (whole entry, looked up): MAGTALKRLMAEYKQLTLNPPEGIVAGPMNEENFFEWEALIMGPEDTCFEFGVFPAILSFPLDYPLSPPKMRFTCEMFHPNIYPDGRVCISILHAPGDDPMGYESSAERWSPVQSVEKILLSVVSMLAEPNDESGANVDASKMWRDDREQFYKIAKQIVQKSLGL
Chain of UniProt Q8WVN8 (whole entry, looked up): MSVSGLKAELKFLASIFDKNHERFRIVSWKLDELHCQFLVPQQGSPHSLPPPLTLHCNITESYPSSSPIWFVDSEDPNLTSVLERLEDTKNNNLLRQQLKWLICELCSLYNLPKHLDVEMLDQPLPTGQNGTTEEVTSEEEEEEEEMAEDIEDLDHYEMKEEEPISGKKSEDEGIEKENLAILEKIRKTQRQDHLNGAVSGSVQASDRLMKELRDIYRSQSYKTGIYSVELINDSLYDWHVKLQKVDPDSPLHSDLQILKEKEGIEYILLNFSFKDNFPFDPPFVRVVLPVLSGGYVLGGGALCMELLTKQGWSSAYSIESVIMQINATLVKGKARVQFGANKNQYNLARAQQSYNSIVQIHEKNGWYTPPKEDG
Chain of UniProt Q15819 (whole entry, looked up): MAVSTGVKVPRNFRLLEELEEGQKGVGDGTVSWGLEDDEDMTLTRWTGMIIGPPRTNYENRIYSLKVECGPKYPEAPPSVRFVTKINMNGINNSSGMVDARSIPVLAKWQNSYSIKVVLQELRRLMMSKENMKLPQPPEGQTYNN
Chain of UniProt Q5VVX9 (whole entry, looked up): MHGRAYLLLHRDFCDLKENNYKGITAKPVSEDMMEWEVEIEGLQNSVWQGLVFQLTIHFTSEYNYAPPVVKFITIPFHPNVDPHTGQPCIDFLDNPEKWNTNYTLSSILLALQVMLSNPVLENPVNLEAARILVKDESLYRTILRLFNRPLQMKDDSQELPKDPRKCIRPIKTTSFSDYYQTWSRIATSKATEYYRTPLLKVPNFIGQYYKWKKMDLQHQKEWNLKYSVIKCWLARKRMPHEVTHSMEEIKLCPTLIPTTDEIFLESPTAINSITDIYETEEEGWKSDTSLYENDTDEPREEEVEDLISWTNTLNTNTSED
Chain of UniProt Q13404 (whole entry, looked up): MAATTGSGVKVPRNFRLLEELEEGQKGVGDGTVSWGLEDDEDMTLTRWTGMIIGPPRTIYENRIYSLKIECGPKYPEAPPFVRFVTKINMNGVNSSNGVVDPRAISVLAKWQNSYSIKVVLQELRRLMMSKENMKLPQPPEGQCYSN
Chain of UniProt Q96LR5 (whole entry, looked up): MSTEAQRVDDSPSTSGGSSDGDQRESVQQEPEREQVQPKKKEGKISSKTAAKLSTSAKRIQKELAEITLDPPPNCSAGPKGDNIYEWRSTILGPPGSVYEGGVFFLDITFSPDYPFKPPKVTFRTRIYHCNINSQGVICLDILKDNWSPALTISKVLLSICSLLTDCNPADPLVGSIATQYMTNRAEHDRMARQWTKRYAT
Chain of UniProt P49427 (whole entry, looked up): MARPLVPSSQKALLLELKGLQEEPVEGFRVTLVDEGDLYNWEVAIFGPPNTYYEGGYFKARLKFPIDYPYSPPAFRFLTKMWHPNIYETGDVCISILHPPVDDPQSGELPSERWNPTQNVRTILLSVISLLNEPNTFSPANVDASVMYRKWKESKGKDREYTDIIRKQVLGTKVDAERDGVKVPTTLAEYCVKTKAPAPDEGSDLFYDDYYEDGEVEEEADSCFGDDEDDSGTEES
Chain of UniProt P51965 (whole entry, looked up): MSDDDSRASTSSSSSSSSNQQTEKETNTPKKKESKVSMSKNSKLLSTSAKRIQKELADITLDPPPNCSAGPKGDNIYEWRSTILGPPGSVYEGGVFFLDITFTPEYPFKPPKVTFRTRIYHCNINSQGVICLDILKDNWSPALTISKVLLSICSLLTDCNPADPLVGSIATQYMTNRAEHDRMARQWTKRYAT
Chain of UniProt O14933 (whole entry, looked up): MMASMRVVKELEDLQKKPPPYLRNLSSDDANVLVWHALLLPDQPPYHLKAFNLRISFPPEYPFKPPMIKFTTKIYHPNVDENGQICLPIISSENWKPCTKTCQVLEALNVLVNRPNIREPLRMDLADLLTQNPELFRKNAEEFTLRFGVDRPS
Chain of UniProt P62256 (whole entry, looked up): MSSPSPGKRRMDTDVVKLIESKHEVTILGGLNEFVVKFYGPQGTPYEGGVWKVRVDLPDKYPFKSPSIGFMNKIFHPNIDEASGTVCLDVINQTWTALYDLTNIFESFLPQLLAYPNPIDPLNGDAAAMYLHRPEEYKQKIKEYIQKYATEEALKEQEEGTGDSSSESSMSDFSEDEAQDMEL

Sample 1
Target: Prothrombin, mature alpha-thrombin (F2, Homo sapiens, UniProt P00734)
Technique: aptamer microarray, sandwich
Form: DNA with 2'F-ANA
Matrix: in vitro
Tested at: 200 nM
Notes: whole 15-mer aptamer, many near background
Added: Cy3 exosite-II aptamer, 400 nM
Reading: higher = stronger binding
Strand: GGTTGGTGTGGTTGG
Modification	mean fluorescence intensity [a.u.]
2'F-ANA at 2 4 9 11 12	461
2'F-ANA at 3 4 8 13	577
2'F-ANA at 1 2 3 4 6 8 10 11 13	61.7
2'F-ANA at 3 4 6 10 14	180
2'F-ANA at 1 2 4 5 7 10 12	50.7
2'F-ANA at 1 2 3 4 6 9 11 12 14	58.9
2'F-ANA at 1 3 4 5 8 11 12 14 15	46.2
2'F-ANA at 1 2 3 4 5 8 12 14 15	49.4
2'F-ANA at 1 2 4 5 6 8 9 11 12 15	88.8
2'F-ANA at 2 5 6 9 11 13 14 15	48.5
2'F-ANA at 1 3 5 7 11 13 14	72.2
2'F-ANA at 1 2 5 6 9 10 15	60.6
2'F-ANA at 2 3 5 7 10 11 12 13 15	57.6
2'F-ANA at 3 4 7 10 12 14	239
2'F-ANA at 1 2 4 5 6 15	55.2
2'F-ANA at 3 4 6 7 8 9 10 11 12 15	266
2'F-ANA at 1 2 4 5 6 7 10 11 12 13 14	157
2'F-ANA at 1 3 6 11 14	73
2'F-ANA at 2 5 6 7 9 10 11 12 14	51.5
2'F-ANA at 1 4 5 6 8 9 13	50.7
2'F-ANA at 1 3 5 6 7 8 13 14	48.4

Sample 2
Target: RING finger protein unkempt homolog, zinc fingers 1-6, GST-SBP tag (UNK, Homo sapiens, UniProt Q9C0B0, residues 30-357)
Technique: RNA Bind-n-Seq
Form: RNA
Matrix: in vitro
Tested at: not given
Notes: RNA with constant flanks, ends assumed
Reference: input RNA pool
Reading: higher = stronger binding
All sequences stand within: GGGAGUUCUACAGUCCGACGAUC … CAACAGAGGAUUGAGCAUCA
Target sequence (chain): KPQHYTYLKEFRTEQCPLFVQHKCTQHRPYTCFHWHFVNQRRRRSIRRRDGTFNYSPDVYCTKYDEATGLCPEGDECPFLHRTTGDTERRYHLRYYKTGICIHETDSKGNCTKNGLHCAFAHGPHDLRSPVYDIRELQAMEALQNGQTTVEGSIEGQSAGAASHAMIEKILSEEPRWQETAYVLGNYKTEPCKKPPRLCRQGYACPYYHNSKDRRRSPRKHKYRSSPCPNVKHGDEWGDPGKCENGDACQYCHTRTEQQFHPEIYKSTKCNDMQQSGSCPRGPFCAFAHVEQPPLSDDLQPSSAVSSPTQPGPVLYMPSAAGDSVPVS
Strand	bound/input enrichment [ratio]
CUAUACCUGAAACUCACAUUUGACCUCAUAGAGAAAGGCUACCUAGUGCUAAAGAGUUCCCGCUACAAAGUCGUUCCUGUUUCGCUCUCUGAGGUUUAUUUACUCCAGUGCAAUAUGAAG	0.281
UAGAGAACAAUGACCUCAUUUUAUUUUCUAUGUUAGUUAUUUAUUUCAAAAUUAACAUUUCCGUUGAUUUUUGUCUGAUAAGUCUAUGUUUUGCACUGCUAACUAUGAUGAGGGUUUAAA	2.23
CAUGCAUUUUAUUGGGGAUGGGAGGUUGGAAUAAUUUAUCCAAAUCUAAUGGUAUUAUUUCACCGGCUAAUCCAGUUUGUAUUUGAGUUAAAGAUCCCAGAGUGUAGUAAUUAAUUGCAG	0.856
AUCGUUGAGGAGUCUUUUAAAUUAGAUUUUUGUUUUGUUGUCUCCCAAGUUAAUAUUAUAUUCCGAUAUCAGAGAGUCAGGCAAAAAGGAAAACUUUUAUCUCUAGGGAAAAAACAUUUA	3.54
UACGAAACAGUGGUUGGCCCUGGUGAUGUUCUUUACAUCCCAAUGUACUGGUGGCAUCACACCGAGUCAUUACUAAAUGGGGGGAUUACCAUCACUGUGAACUUCUGGUAUAAGGGGGCU	0.101
AACACCAACACAGCAAUCGAGCUGAAACUAGUUCGUUUUCCUGAAGAUCUUGAGAAUGACAUCCGAACUUUCUUUCCUGAAUAUACCCAUCAGCUCUUUGGGGAUGAUGAAACUGCUUUC	0.109
CAUCAUCGGGUGGGCGAGACAGCCCCACCCAAUGCCUACACUGUCACUGACCUAGUGGAGUACCGCAUCGUGAUCCAGCAGCUCUCAAAUGGCAAAUGGGUCCCCUUUGAUGGCGAUGAC	0.0603
CUUAAAGAGCUUGAAGCUAAAGCCUAUAAACAGAUUGAUGCACGUGGUGGGAACCCUGAGCCCGCCGCCUUAGUAAAACACUUAAGUAAGAUGUUCAAAGAAGAAAAUGAAUAAUGUUAA	2.49

Sample 3
Target: Sal-like protein 4, full length isoform A (SALL4, Homo sapiens, UniProt Q9UJQ4, residues 1-1053)
Chain of UniProt Q9UJQ4 (whole entry, looked up): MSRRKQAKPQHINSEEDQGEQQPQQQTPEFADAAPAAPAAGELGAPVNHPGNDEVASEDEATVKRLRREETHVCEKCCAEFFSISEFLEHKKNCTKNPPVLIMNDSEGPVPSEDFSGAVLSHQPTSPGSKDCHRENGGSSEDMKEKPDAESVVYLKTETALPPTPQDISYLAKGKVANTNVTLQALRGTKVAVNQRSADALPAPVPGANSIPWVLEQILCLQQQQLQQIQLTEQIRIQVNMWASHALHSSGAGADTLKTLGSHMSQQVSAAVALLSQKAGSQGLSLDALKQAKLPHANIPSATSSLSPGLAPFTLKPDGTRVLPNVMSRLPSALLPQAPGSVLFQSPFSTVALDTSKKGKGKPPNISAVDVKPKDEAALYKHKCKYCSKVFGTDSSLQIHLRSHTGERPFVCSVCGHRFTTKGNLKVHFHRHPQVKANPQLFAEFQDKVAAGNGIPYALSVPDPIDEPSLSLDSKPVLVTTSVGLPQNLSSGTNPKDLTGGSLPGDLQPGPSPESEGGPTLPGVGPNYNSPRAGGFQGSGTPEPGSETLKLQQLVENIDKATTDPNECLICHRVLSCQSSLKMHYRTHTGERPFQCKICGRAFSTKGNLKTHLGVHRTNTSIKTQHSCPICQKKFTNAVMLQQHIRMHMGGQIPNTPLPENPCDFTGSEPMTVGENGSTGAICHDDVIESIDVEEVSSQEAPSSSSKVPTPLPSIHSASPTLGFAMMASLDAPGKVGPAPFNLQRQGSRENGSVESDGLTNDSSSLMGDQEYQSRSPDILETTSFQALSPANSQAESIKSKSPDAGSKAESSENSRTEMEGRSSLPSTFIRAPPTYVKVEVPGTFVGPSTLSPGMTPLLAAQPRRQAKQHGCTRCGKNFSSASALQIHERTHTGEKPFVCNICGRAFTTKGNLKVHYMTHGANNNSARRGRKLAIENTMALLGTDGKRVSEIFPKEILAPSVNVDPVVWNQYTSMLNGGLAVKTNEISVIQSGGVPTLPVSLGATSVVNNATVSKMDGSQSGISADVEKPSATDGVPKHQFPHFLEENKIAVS
Technique: universal PBM
Form: double-stranded DNA, one strand shown
Matrix: in vitro
Tested at: 600 nM
Notes: 8-mer, flanks averaged, mean of replicates
Reading: higher = stronger binding
Strand	E-score
GCGGGGTA	-0.225
CTGAATCA	0.132
AACGAACC	-0.124
TAAGTTAA	0.298
GGACCACC	-0.261
ACGTTGCA	-0.0178
ACCTACTG	-0.000915
TGACGGCA	-0.0954
GGCCTATA	0.0575
AAACGCAA	0.0885
ACCGCCAA	-0.114
ATGATGCA	0.194
ATAAGCGA	0.235
GTCTGCAA	-0.046
ACTGATCT	0.0808
GCATGGGC	-0.245
GGCGAACA	-0.147
ACTGAAGT	0.0814

Sample 4
Sequence: B1 (RNF175 RING domain)
Technique: yeast two-hybrid
Matrix: yeast
Notes: mostly zero background
Reference: not given
Reading: higher = stronger interaction
B1: RNF175 RING domain (UniProt Q8N4F7); chain LPTRSLSDNICAVCGQKIIVELDEEGLIENTYQLSCNHVFHEFCIRGWCIVGKKQTCPYCKEKVDLKRMIS
target	lacZ reporter activity
UBE2V2 UBC core domain (UniProt Q15819)	0
UBE2U UBC core domain (UniProt Q5VVX9)	0
UBE2E2 UBC core domain (UniProt Q96LR5)	0
CDC34 UBC core domain (UniProt P49427)	0
UBE2L6 UBC core domain (UniProt O14933)	0
UBE2H UBC core domain (UniProt P62256)	0
UBE2V1 UBC core domain (UniProt Q13404)	0
UBE2E1 UBC core domain (UniProt P51965)	0
UBE2G2 UBC core domain (UniProt P60604)	0
UBE2Q2 UBC core domain (UniProt Q8WVN8)	0

Sample 5
Target: Histone acetyltransferase KAT6A, winged helix 2, GST fusion (KAT6A, Homo sapiens, UniProt Q92794, residues 85-181)
Technique: protein binding microarray
Form: double-stranded DNA, one strand shown
Matrix: in vitro
Tested at: not given
Notes: 8-mer, flanks averaged, mean of 2 arrays, mostly near background
Reference: not given
Reading: higher = stronger binding
Target sequence (chain): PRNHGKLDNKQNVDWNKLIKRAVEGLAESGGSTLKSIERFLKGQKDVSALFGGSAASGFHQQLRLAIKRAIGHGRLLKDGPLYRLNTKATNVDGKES
Strand	E-score
GTCCGCTA	0.0971
GTCGTTAA	-0.0569
ATCGCGTG	0.0102
AGGGAGGA	0.0359
CTCGTCCA	0.155
ATCCTAAC	-0.00602
AAGGGATA	0.00773
AATCAGAT	-0.00515
CACGGCCC	-0.0447
CAAATTCA	0.0845
GATCAAAA	0.00513
CCACAATA	-0.0964
ATAGAATG	-0.0373
TGCGAAAA	0.252
GCAGTGCC	0.157
GGCTGCCC	0.219
ATGATAGC	0.21
GCTGCCAA	-0.00741
ACTGGTCC	-0.0769
GAGAGTCC	-0.22
CGGGGCTC	0.0724
TGAAGTCA	-0.158

Excerpt of the above (sample 4):
target	lacZ reporter activity
UBE2H UBC core domain (UniProt P62256)	0
CDC34 UBC core domain (UniProt P49427)	0
UBE2Q2 UBC core domain (UniProt Q8WVN8)	0
UBE2E1 UBC core domain (UniProt P51965)	0
UBE2L6 UBC core domain (UniProt O14933)	0
UBE2V2 UBC core domain (UniProt Q15819)	0
